{"data": "Measured values collected from several papers", "cell line": "HCT-116", "note": "Protocols differ between the studies behind these lines. “And” joins repeats or separate records; there may be more than shown. Numbers after ± are the reported error."}
{"Structure (SMILES)": "S=C([S][Au-][P+](CCCCCC[P+]([Au-][S]C(=S)n1cccn1)(c1ccccc1)c1ccccc1)(c1ccccc1)c1ccccc1)n1cccn1", "test": "cell growth, NCI-60 screen", "setting": "colon cancer", "measurement": "log10 TGI", "value": "> -4"}
{"Structure (SMILES)": "COc1nc(NCc2cn(-c3ccc(C(=O)Nc4ccccc4)cc3)nn2)nc(OC)n1", "test": "sandwich ELISA", "test system": "culture supernatant", "setting": "IC50, 72 h, unit not given", "how to read": "reference: untreated", "measurement": "VEGF protein level", "value": "0.78 and 0.783"}
{"Structure (SMILES)": "CCCN1CCN(c2ccc3[nH]c(-c4ccc5[nH]c(-c6cc(OC)c(OC)c(OC)c6)nc5c4)nc3c2)CC1", "test": "SRB", "setting": "10 µM, 48 h", "measurement": "growth percent", "value": "55.1%"}
{"Structure (SMILES)": "COc1cccc2c1C(=O)c1c(O)c3c(c(O)c1C2=O)C[C@@](O)(C(=O)CO)C[C@@H]3O[C@H]1C[C@H](N)[C@H](O)[C@H](C)O1", "test": "annexin V-FITC/PI", "setting": "IC50, 24 h", "measurement": "necrotic cells", "value": "4.61%"}
{"Structure (SMILES)": "NC(=O)NO", "test": "cell growth, live-cell imaging", "setting": "3000 µM, control at 90% confluence", "measurement": "cell confluence", "value": "3.43 ± 0.9%"}
{"Structure (SMILES)": "CC(=NN=C1NC(=O)C(C)S1)c1c(O)c2ccccc2oc1=O (stereo not drawn)", "test": "cell growth, MTT", "how to read": "reference: IC50 BJ-1 over HCT-116", "measurement": "selectivity index", "value": "> 2.61"}
{"Structure (SMILES)": "O=C1NCCc2[nH]c(-c3ccncc3)cc21", "test": "MTS", "test system": "colon cancer", "measurement": "IC50", "value": "1.26 µM"}
{"Structure (SMILES)": "CCOC(=O)c1sc(=NN=C(C)c2c(O)c3ccccc3oc2=O)n(C)c1C", "test": "cell growth, MTT", "how to read": "reference: IC50 BJ-1 over HCT-116", "measurement": "selectivity index", "value": "> 16.9"}
{"Structure (SMILES)": "O=C1NC(c2ccccc2)(c2ccccc2)C(=O)N1Cc1cn(-c2c3ccccc3nc3ccccc23)nn1", "test": "NCI60 single-dose screen", "setting": "10 µM", "measurement": "growth percentage", "value": "68.1%"}
{"Structure (SMILES)": "CCCCN1CCN(c2ccc3[nH]c(-c4ccc5[nH]c(-c6ccc(OCC)cc6)nc5c4)nc3c2)CC1", "test": "SRB", "setting": "10 µM, 48 h", "measurement": "growth percent", "value": "21.1%"}
{"Structure (SMILES)": "COc1ccc2cc(/C=N/n3c(C)nc4ccc(Br)cc4c3=O)ccc2c1", "test": "cytotoxicity, LDH release", "setting": "24 h, 50% viability reduction", "measurement": "IC50", "value": "553 ± 11.7 µM"}
{"Structure (SMILES)": "NC(=O)NOCCCC[P+](c1ccccc1)(c1ccccc1)c1ccccc1.O=C([O-])C(F)(F)F", "test": "cell growth, live-cell imaging", "setting": "200 µM, control at 90% confluence", "measurement": "cell confluence", "value": "90.8%"}
{"Structure (SMILES)": "O=C(O)c1ccc(Nc2c(-c3ccccc3)nc3cnccn23)cc1C(=O)O", "test": "cell viability", "setting": "72 h, with: camptothecin", "how to read": "direction not given", "measurement": "synergy score", "value": 4}
{"Structure (SMILES)": "Cc1cc(C)n(-c2nc(-c3ccc(Cl)cc3)c3c(NC(=O)c4ccccc4)nnc-3[nH]2)n1", "test": "SRB", "setting": "10 µM, NCI60 single-dose screen, colon cancer", "how to read": "reference: untreated", "measurement": "cell growth", "value": "84.8%"}
{"Structure (SMILES)": "CCCN1CCN(c2ccc3[nH]c(-c4ccc5[nH]c(-c6ccc(C(F)(F)F)cc6)nc5c4)nc3c2)CC1", "test": "SRB", "setting": "10 µM, 48 h", "measurement": "growth percent", "value": "-83.3%"}
{"Structure (SMILES)": "O=[N+]([O-])c1cc(Br)c(O)c(C=NNc2ccccc2)c1", "test": "ELISA", "test system": "culture supernatant", "setting": "IC50, with: LPS", "measurement": "TNF-α level", "value": "25%"}
{"Structure (SMILES)": "COc1ccc(NC(=O)c2cccc(-c3nc(NC(P(=O)(O)O)P(=O)(O)O)c4ccsc4n3)c2)cc1F", "test": "Rap1A prenylation, inhibitor, Western blot", "measurement": "lowest effective concentration", "value": "≤ 100 nM"}
{"Structure (SMILES)": "O=[N+]([O-])c1cc(Br)c(O)c(C=NNc2ccc(C(F)(F)F)cc2)c1", "test": "Muse cell cycle", "setting": "IC50, 24 h", "measurement": "cells in S phase", "value": "27.3%"}
{"Structure (SMILES)": "Cc1n[nH]c2nc(-c3ccc(Cl)cc3)c3c(NC(=O)c4ccccc4)nnc-3n12", "test": "SRB", "setting": "10 µM, NCI60 single-dose screen, colon cancer", "how to read": "reference: untreated", "measurement": "cell growth", "value": "101%"}
{"Structure (SMILES)": "CCCN1CCN(c2ccc3nc(-c4ccc5nc(-c6cc(OC)ccc6OC)[nH]c5c4)[nH]c3c2)CC1", "test": "SRB", "setting": "10 µM, 48 h", "measurement": "growth percent", "value": "-57.3%"}
{"Structure (SMILES)": "CC(=NN=c1sc(N=Nc2ccc(C)cc2)c(C)n1C)c1c(O)c2ccccc2oc1=O", "test": "cell growth, MTT", "how to read": "reference: IC50 BJ-1 over HCT-116", "measurement": "selectivity index", "value": "> 1.81"}
{"Structure (SMILES)": "O=P1(C2CCCCC2)CCCCC1", "test": "annexin V/PI flow cytometry", "setting": "IC50, 72 h", "measurement": "necrotic cells", "value": "1.45%"}
{"Structure (SMILES)": "Cn1cncc1C1=CN(c2ncnc3[nH]cnc23)CCS1", "setting": "colon cancer", "measurement": "GI50", "value": "10 µM"}
{"Structure (SMILES)": "O=C(NOC[C@H](O)CO)c1ccc(F)c(F)c1Nc1ccc(I)cc1F", "setting": "0.07813 µM, 72 h", "measurement": "viability", "value": "74.5%"}
{"Structure (SMILES)": "O=C1NC(c2ccccc2)(c2ccccc2)C(=O)N1Cc1cn(-c2cc3ccccc3oc2=O)nn1", "test": "NCI60 single-dose screen", "setting": "10 µM", "measurement": "growth percentage", "value": "96.6%"}
{"Structure (SMILES)": "NC(=O)NOCCCCCCCCCCCCCCCC[P+](c1ccccc1)(c1ccccc1)c1ccccc1.O=C([O-])C(F)(F)F", "test": "cell growth, live-cell imaging", "setting": "0.03 µM, control at 90% confluence", "measurement": "cell confluence", "value": "87.6%"}
{"Structure (SMILES)": "O=C(Nc1nnc2[nH]c(=S)[nH]c(-c3ccc(Cl)cc3)c1-2)c1ccccc1", "test": "SRB", "setting": "10 µM, NCI60 single-dose screen, colon cancer", "how to read": "reference: untreated", "measurement": "cell growth", "value": "99.1%"}
{"Structure (SMILES)": "NC(=O)NOCCCCCCCCCCCCCC[P+](c1ccccc1)(c1ccccc1)c1ccccc1.O=C([O-])C(F)(F)F", "test": "cell growth, live-cell imaging", "setting": "0.1 µM, control at 90% confluence", "measurement": "cell confluence", "value": "89.4%"}
{"Structure (SMILES)": "OC1CCC(Oc2cccc3cnc(Nc4ccc5nc[nH]c5c4)nc23)CC1 (stereo not drawn)", "test": "RT-qPCR, measured: TNIK mRNA", "setting": "concentration not given, 24 h", "how to read": "reference: GAPDH", "measurement": "mRNA level", "value": "decreased"}
{"Structure (SMILES)": "O=[N+]([O-])c1ccc(O)c(C=NNc2ccc(Br)cc2)c1", "test": "cell cycle analysis", "setting": "IC50, 24 h", "measurement": "cells in G2/M phase", "value": "27.6%"}
{"Structure (SMILES)": "COc1nc(NCc2cn(-c3ccc(C(=O)Nc4ccc(C(F)(F)F)cc4)cc3)nn2)nc(OC)n1", "test": "annexin V-FITC/PI", "setting": "IC50, 24 h", "measurement": "apoptotic cells Early", "value": "13.7%"}
{"Structure (SMILES)": "CC(=NN=C1SC(C)C(=O)N1C)c1c(O)c2ccccc2oc1=O (stereo not drawn)", "test": "cell growth, MTT", "how to read": "reference: IC50 BJ-1 over HCT-116", "measurement": "selectivity index", "value": "> 2.23"}
{"Structure (SMILES)": "NC(=O)NOCCCCCCCCCCCC[P+](c1ccccc1)(c1ccccc1)c1ccccc1.O=C([O-])C(F)(F)F", "test": "cell growth, live-cell imaging", "setting": "10 µM, control at 90% confluence", "measurement": "cell confluence", "value": "2.49 ± 0.28%"}
{"Structure (SMILES)": "COc1cccc2c1C(=O)c1c(O)c3c(c(O)c1C2=O)C[C@@](O)(C(=O)CO)C[C@@H]3O[C@H]1C[C@H](N)[C@H](O)[C@H](C)O1", "test": "flow cytometry", "setting": "3.66 µM (IC50), 72 h", "measurement": "cells in G0/G1 phase", "value": "33.6%"}
{"Structure (SMILES)": "NC(=O)NOCCCCCCCCCC[P+](c1ccccc1)(c1ccccc1)c1ccccc1.O=C([O-])C(F)(F)F", "test": "cell growth, live-cell imaging", "setting": "30 µM, control at 90% confluence", "measurement": "cell confluence", "value": "1.74%"}
{"Structure (SMILES)": "Cn1cnc2c(F)c(Nc3ccc(Br)cc3F)c(C(=O)NOCCO)cc21", "setting": "0.625 µM, 72 h", "measurement": "viability", "value": "43.7%"}
{"Structure (SMILES)": "COc1cnc2cccc(N3CCc4c(cc(Cn5ccnc5C)cc4-c4cn(C)nc4C(F)(F)F)C3=O)c2c1", "test": "cell growth, inhibitor", "setting": "120 h", "measurement": "EC50", "value": "11.9 µM"}
{"Structure (SMILES)": "Cc1cc(-c2ccccc2)n(-c2nc(-c3ccc(Cl)cc3)c3c(NC(=O)c4ccccc4)nnc-3[nH]2)n1", "test": "SRB", "setting": "10 µM, NCI60 single-dose screen, colon cancer", "how to read": "reference: untreated", "measurement": "cell growth", "value": "100%"}
{"Structure (SMILES)": "O=[N+]([O-])c1cc(I)c(O)c(C=NNc2ccccc2)c1", "test": "ELISA", "test system": "culture supernatant", "setting": "IC50, with: LPS", "measurement": "IL-6 level", "value": "42%"}
{"note": "A few entries again:"}
{"Structure (SMILES)": "COc1cccc2c1C(=O)c1c(O)c3c(c(O)c1C2=O)C[C@@](O)(C(=O)CO)C[C@@H]3O[C@H]1C[C@H](N)[C@H](O)[C@H](C)O1", "test": "flow cytometry", "setting": "3.66 µM (IC50), 72 h", "measurement": "cells in G0/G1 phase", "value": "33.6%"}
{"Structure (SMILES)": "NC(=O)NOCCCCCCCCCC[P+](c1ccccc1)(c1ccccc1)c1ccccc1.O=C([O-])C(F)(F)F", "test": "cell growth, live-cell imaging", "setting": "30 µM, control at 90% confluence", "measurement": "cell confluence", "value": "1.74%"}
{"Structure (SMILES)": "Cn1cnc2c(F)c(Nc3ccc(Br)cc3F)c(C(=O)NOCCO)cc21", "setting": "0.625 µM, 72 h", "measurement": "viability", "value": "43.7%"}
{"Structure (SMILES)": "COc1cnc2cccc(N3CCc4c(cc(Cn5ccnc5C)cc4-c4cn(C)nc4C(F)(F)F)C3=O)c2c1", "test": "cell growth, inhibitor", "setting": "120 h", "measurement": "EC50", "value": "11.9 µM"}
